Published values of several laboratories.
Compare with care: the assays were run in different laboratories. ± gives the spread as reported.
OPRD1: Delta-type opioid receptor (OPRD1, Homo sapiens, UniProt P41143)
Sequence of UniProt P41143 (whole entry, looked up): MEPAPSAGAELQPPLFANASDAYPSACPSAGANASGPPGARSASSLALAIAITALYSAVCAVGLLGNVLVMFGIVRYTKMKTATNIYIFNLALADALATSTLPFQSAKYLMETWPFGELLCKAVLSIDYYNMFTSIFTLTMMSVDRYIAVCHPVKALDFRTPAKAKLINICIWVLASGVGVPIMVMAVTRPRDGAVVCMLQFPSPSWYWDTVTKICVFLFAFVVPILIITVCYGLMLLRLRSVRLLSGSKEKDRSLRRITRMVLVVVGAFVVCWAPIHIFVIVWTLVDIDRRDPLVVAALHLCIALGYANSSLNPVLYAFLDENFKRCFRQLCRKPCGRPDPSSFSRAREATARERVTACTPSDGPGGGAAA
OPRD1 with Gi1: Delta-type opioid receptor, with Gi1 (OPRD1, Homo sapiens, UniProt P41143)

SMILES | target | test | system | conditions | how to read | measurement | result
CCCC[C@@H](C(=O)N[C@@H](CC(=O)O)C(=O)N[C@@H](Cc1ccccc1)C(N)=O)N(C)C(=O)[C@@H](Cc1c[nH]c2ccccc12)NC(=O)CNC(=O)[C@@H](Cc1ccccc1)NC(=O)[C@@H](N)Cc1ccc(O)cc1 | OPRD1 | GTPγS binding, agonist |  |  |  | EC50 | 33.8 nM
CC(C)C[C@H](NC(=O)[C@@H]1CCCN1C(=O)[C@H]1NC(=O)[C@H](Cc2ccccc2)NC(=O)CNC(=O)[C@H](NC(=O)[C@@H](N)Cc2ccc(O)cc2)C(C)(C)SSC1(C)C)C(=O)N[C@@H](Cc1c[nH]c2ccccc12)C(=O)NCc1cc(C(F)(F)F)cc(C(F)(F)F)c1 | OPRD1 | GTPγS binding, agonist, radiometric |  | cell membranes |  | Emax | 57%
N=C(N)NCCCCCCN1CC[C@]23c4c5ccc(O)c4O[C@H]2c2[nH]c4ccccc4c2C[C@@]3(O)[C@H]1C5 | OPRD1 with Gi1 |  | human cells |  |  | Emax | 52 ± 2%
Cc1cc(O)cc(C)c1C[C@H](N)C(=O)N[C@@H]1CSSC[C@@H](NC(=O)[C@@H](N)Cc2c(C)cc(O)cc2C)C(=O)NCC(=O)N[C@@H](Cc2ccccc2)C(=O)NNC(=O)[C@H](Cc2ccccc2)NC(=O)CNC1=O | OPRD1 | agonist, GTPγS binding | CHO | concentration not given |  | agonist activity | inactive
N=C(N)NCCCN1CC[C@]23c4c5ccc(O)c4O[C@H]2c2nc4ccccc4cc2C[C@@]3(O)[C@H]1C5 | OPRD1 with Gi1 |  | human cells |  |  | Emax | 90 ± 3%
COC(=O)C1C(OC(c2ccc(Cl)cc2)c2ccc(Cl)cc2)CC2CCC1N2C (single isomer, unassigned) | OPRD1 | binding, radioligand displacement |  | inactive if below 75% at 10000 nM, with: [3H]Naltrindole |  | Ki | inactive
CCCCCCNC(=O)c1ccc(C[C@H](N)C(=O)N2Cc3ccccc3C[C@H]2C(=O)N[C@@H](Cc2ccccc2)C(=O)N[C@@H](Cc2ccccc2)C(=O)O)cc1 | OPRD1 | agonist | HEK293 cells expressing OPRD1 |  |  | EC50 | 0.103 nM
C[C@@H](NC(=O)[C@@H](N)Cc1ccc(O)cc1)C(=O)NCC(=O)N[C@@H](Cc1ccccc1)C(=O)N1CCN(C(=O)[C@H](Cc2ccccc2)NC(=O)CNC(=O)[C@@H](C)NC(=O)[C@@H](N)Cc2ccc(O)cc2)CC1 | OPRD1 | GTPγS binding, agonist |  | cell membranes |  | Emax | 56.9%
C[C@H]1[C@H]2CCC[C@]1(c1cccc(O)c1)CCN2CCc1ccccc1 | OPRD1 | radioligand competition binding | CHO membranes | with: [3H]diprenorphine | reference: Ki DOR over Ki MOR | selectivity ratio | 170 fold
CCCC[C@@H]1NC(=O)[C@H](Cc2ccccc2)NC(=O)CNC(=O)[C@H](NC(=O)[C@@H](N)Cc2ccc(O)cc2)C(C)(C)SSC(C)(C)[C@H](C(=O)N[C@@H](Cc2c[nH]c3ccccc23)C(=O)NCc2cc(C(F)(F)F)cc(C(F)(F)F)c2)NC(=O)[C@@H]2CCCN2C1=O | OPRD1 | GTPγS binding, agonist, radiometric |  | cell membranes |  | Emax | 42%
N=C(N)NCCCCCCCN1CC[C@]23c4c5ccc(O)c4O[C@H]2c2nc4ccccc4cc2C[C@@]3(O)[C@H]1C5 | Delta-type opioid receptor, with β-arrestin1 (OPRD1, Homo sapiens, UniProt P41143) |  | human cells |  |  | Emax | 45 ± 3%
CCOC(=O)C1C(OC(c2ccc(Cl)cc2)c2ccc(Cl)cc2)CC2CCC1N2C (single isomer, unassigned) | OPRD1 | binding, radioligand displacement |  | inactive if below 75% at 10000 nM, with: [3H]Naltrindole |  | Ki | inactive
CCCC[C@H](NC(=O)[C@H](Cc1ccccc1)NC(=O)CNC(=O)[C@@H](C)NC(=O)[C@@H](N)Cc1ccc(O)cc1)C(=O)N1CCC[C@H]1C(=O)N[C@@H](CC(C)C)C(=O)N[C@@H](CO[C@@H]1O[C@H](CO)[C@@H](O)[C@H](O)[C@H]1O)C(=O)N[C@@H](Cc1c[nH]c2ccccc12)C(=O)NCc1cc(C(F)(F)F)cc(C(F)(F)F)c1 | OPRD1 | binding, radioligand competition |  | with: [3H]DPDPE | reference: Ki rat MOR over Ki human DOR | selectivity ratio | 39
N[C@@H](Cc1ccc(C(=O)NCCc2ccc3ccccc3c2)cc1)C(=O)N1Cc2ccccc2C[C@H]1C(=O)N[C@@H](Cc1ccccc1)C(=O)N[C@@H](Cc1ccccc1)C(=O)O | OPRD1 | G-protein activation, agonist | HEK293 stably expressing receptor |  | reference: DPDPE | relative potency | 7 to 14 fold
C[C@@H](NC(=O)[C@@H](N)Cc1ccc(O)cc1)C(=O)NCC(=O)N[C@@H](Cc1ccccc1)C(=O)Nc1ccccc1NC(=O)[C@H](Cc1ccccc1)NC(=O)CNC(=O)[C@@H](C)NC(=O)[C@@H](N)Cc1ccc(O)cc1 | OPRD1 | GTPγS binding, agonist |  | cell membranes |  | Emax | 83%

A few entries again:
SMILES | target | test | system | conditions | how to read | measurement | result
N=C(N)NCCCCCCN1CC[C@]23c4c5ccc(O)c4O[C@H]2c2[nH]c4ccccc4c2C[C@@]3(O)[C@H]1C5 | OPRD1 with Gi1 |  | human cells |  |  | Emax | 52 ± 2%
COC(=O)C1C(OC(c2ccc(Cl)cc2)c2ccc(Cl)cc2)CC2CCC1N2C (single isomer, unassigned) | OPRD1 | binding, radioligand displacement |  | inactive if below 75% at 10000 nM, with: [3H]Naltrindole |  | Ki | inactive
